# Experimental data pooled from the literature.
# Compare with care: the assays were run in different laboratories.
Structure (SMILES),target or system,test,test system,setting,measurement,result
COc1ccc(-c2c(-c3ccc(C#N)c(F)c3)nc(N3CCC(N)CC3)n(C)c2=O)cc1F,,item: rash maculo-papular,human patients,"oral, dose not given, dose escalation",patients with TRAE any grade,4%
Cn1cncc1-c1c(F)cncc1NC(=O)c1c(N)nn2cc(F)cnc12,,,human patients,"oral, 180 mg once daily, 2 weeks on 1 week off",patients grade ≥3 white cell decrease,0%
Cn1nc(NS(C)(=O)=O)c2c(Cl)ccc(-n3c([C@H](Cc4cc(F)cc(F)c4)NC(=O)Cn4nc(C(F)F)c5c4C(F)(F)[C@@H]4C[C@H]54)nc4nc(OCCC(F)(F)F)ccc4c3=O)c21,,item: total cholesterol grade 2 increase,human,"400 mg once daily, powder in bottle",patients with laboratory abnormality,0%
CC(C)(CO)Cc1cc(C(C)(C)C)c(O)c(C(C)(C)C)c1,Plasmodium falciparum,,3D7,,IC50,3.98 µM
C[C@@H]1OC(=O)NN=C1c1ccc(-c2ccc(F)cc2)c(C(F)(F)F)c1,,"phase I trial, item: Presyncope worst grade 2",human patients,5 mg loading then 0.25 mg daily,patients with adverse event,0%
Cc1cn([C@H]2O[C@@H](CO[P@@](=O)(N[C@@H](C)C(=O)OC(C)C)Oc3ccccc3)[C@H](O)[C@H]2F)c(=O)[nH]c1=O,,item: Nausea,human,25 mg,patients with TEAE,0%
OCCN1CCN(CC/C=C2/c3ccccc3Sc3ccc(C(F)(F)F)cc32)CC1,Plasmodium falciparum,,3D7,,IC50,2.51 µM
C=CC(=O)Nc1cc(Nc2nccc(Nc3cc(Cl)c(F)cc3C(C)(C)O)n2)c(OC)cc1N1CC[C@@H](N(C)C)C1,,,human patients,"oral, 300 mg, treatment-emergent adverse events",patients with nausea,37.3%
CN(C)C(=O)c1cc2cnc(Nc3ccc(N4CCNCC4)cn3)nc2n1C1CCCC1,,"item: Hepatobiliary toxicity, AESI","human, HR+/HER2− advanced breast cancer","oral, dose not given, all grades, CTCAE v4.03",patients with adverse event,29.3%
O=C1Nc2cc3[nH]nc(-c4ccncc4)c3cc2CN1Cc1ccccc1,,CTCAE v4.03,"human, relapsed or refractory advanced solid tumours","intravenous, 7.2 mg/kg",patients with vitreous floaters,0%
COc1ncnn2ccc(-c3cnc4nc(C)n(Cc5nnc([C@@H](C)F)o5)c4c3)c12,,,human,"oral, dose not given, grade 2",patients with nausea,42.9%
C[C@]1(O)C[C@@](N)(c2ccc(-c3nc4n(c3-c3ccccc3)COc3ccncc3-4)cc2)C1,,,"human, advanced or metastatic solid tumours","dose not given, intermittent dose escalation total",patients with any TEAE,85.7%
